Results collected from several papers.
Lines come from different studies, so protocols differ.
BTK R28H: Tyrosine-protein kinase BTK (BTK, Homo sapiens, UniProt Q06187, R28H)
UniProt Q06187, sequence (whole entry, unmodified, looked up): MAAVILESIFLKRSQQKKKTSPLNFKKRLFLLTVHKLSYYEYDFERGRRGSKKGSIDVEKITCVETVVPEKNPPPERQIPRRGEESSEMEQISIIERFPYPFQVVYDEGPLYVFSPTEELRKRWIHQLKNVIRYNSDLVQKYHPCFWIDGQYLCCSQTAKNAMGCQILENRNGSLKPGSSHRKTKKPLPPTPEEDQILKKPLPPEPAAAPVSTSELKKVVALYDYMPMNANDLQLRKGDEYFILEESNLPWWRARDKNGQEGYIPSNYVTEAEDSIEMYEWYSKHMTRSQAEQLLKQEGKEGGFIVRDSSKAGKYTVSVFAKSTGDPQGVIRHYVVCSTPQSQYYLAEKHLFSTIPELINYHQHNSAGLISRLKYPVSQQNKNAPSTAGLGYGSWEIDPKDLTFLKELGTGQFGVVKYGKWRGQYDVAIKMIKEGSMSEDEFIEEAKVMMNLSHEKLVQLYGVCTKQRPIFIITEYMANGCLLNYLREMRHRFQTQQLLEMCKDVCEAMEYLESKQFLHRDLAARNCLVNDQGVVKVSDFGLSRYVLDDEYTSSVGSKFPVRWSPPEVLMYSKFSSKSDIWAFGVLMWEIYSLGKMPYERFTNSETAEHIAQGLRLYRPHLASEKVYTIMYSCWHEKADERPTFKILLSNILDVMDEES
BTK: Tyrosine-protein kinase BTK (BTK, Homo sapiens, UniProt Q06187)

SMILES | target | test | conditions | scale | measurement | value
CS(C)(=O)=Nc1ccc(-c2ccc(-c3nc4cc(O[C@@H]5CO[C@H]6[C@@H]5OC[C@H]6O)[nH]c4cc3F)cc2)cc1 | BTK R28H | enzyme activity, inhibitor | 10 µM |  | inhibition | 1%
O=C1NC(=O)c2c1c1cc(F)c[n+]3c1c1c2c2cc(O)ccc2[n]1[Ru-4]312([N]=C=S)[S+]3CC[S+]1CC[S+]2CC3 (stereo not drawn) | BTK R28H | enzyme activity | 100 nM, human enzyme, added: 10 µM ATP | baseline: untreated | remaining activity | 111%
O=C(CN1CN(c2ccccc2)C2(CCN(C(=O)c3cnc4[nH]ncc4c3)CC2)C1=O)NCC(F)(F)F | BTK | inhibitor | concentration not given |  | inhibition | < 50%
CCOC(=O)[C@@H]1Cc2c(cc([N+](=O)[O-])cc2[N+](=O)[O-])[C@H](O)[C@]12C(=O)Nc1ccc(Br)cc12 | BTK | KINOMEscan | 100 nM | baseline: DMSO control | remaining binding | 74%
CC(C)[C@H]1NC(=O)C[C@H]2/C=C/CCSSC[C@@H](NC1=O)C(=O)N[C@H](Cc1cccc3ccccc13)C(=O)NCC(=O)O2 | BTK | enzyme activity, inhibitor | 10 µM |  | inhibition | -10.8%
CN(C)[C@H]1C[C@@]23CC[C@@]4(O2)C(=CC[C@]2(C)[C@@H](c5ccc6ccncc6c5)CC[C@H]24)C=C3[C@@H](O)[C@@H]1O | BTK | ATP probe labelling, inhibitor, KiNativ profiling | 0.1 µM |  | inhibition | -4.2%
N[C@H](C(=O)N1CCCC1)C1CCN(c2nccc3c(-c4ncc(Cl)cc4Cl)cccc23)CC1 | BTK | kinase activity, inhibitor | 10 µM, added: ATP 1 mM |  | inhibition | 0.2%
Nc1ccc(/C=C/C(=O)N2CCc3c(oc4c(-c5ccc(F)cc5)cc(-c5ccc(C(=O)N6CCC(F)(F)CC6)cn5)cc34)C2)cn1 | BTK | binding, competition with immobilised ligand | 1 µM |  | remaining binding | 100%
C[C@H](NCc1ccc(-c2ccc(C(F)(F)F)cc2)cc1)C(N)=O | BTK | cell-free assay, competition with immobilised ligand | 1 µM |  | inhibition | 5%

For quick reference, copied from above:
SMILES | target | test | conditions | scale | measurement | value
CC(C)[C@H]1NC(=O)C[C@H]2/C=C/CCSSC[C@@H](NC1=O)C(=O)N[C@H](Cc1cccc3ccccc13)C(=O)NCC(=O)O2 | BTK | enzyme activity, inhibitor | 10 µM |  | inhibition | -10.8%
